Measured values from different studies.
Compare with care: the assays were run in different laboratories. Several values in a cell are separate wells, animals, samples, runs or records. ± gives the spread as reported.
Chain of UniProt P78417 (whole entry, looked up): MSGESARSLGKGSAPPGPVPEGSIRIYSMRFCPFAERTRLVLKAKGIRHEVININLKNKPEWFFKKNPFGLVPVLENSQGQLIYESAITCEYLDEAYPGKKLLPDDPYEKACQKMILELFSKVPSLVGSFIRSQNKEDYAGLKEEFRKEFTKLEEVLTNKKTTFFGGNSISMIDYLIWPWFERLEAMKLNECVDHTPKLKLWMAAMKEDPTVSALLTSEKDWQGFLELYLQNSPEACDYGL
Chain of UniProt Q9H3N8 (whole entry, looked up): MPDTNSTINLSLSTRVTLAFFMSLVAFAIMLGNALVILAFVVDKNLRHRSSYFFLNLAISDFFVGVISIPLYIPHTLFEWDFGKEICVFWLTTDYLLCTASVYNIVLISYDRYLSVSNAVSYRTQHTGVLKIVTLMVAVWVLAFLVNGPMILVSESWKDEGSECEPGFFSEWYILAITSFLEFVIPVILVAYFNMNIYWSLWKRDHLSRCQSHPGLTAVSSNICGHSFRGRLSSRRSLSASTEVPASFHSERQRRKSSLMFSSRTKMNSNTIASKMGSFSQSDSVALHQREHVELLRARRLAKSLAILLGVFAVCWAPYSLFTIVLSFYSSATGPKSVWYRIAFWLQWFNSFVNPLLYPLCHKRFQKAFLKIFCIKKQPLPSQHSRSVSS
Chain of UniProt Q9Y5L0 (whole entry, looked up): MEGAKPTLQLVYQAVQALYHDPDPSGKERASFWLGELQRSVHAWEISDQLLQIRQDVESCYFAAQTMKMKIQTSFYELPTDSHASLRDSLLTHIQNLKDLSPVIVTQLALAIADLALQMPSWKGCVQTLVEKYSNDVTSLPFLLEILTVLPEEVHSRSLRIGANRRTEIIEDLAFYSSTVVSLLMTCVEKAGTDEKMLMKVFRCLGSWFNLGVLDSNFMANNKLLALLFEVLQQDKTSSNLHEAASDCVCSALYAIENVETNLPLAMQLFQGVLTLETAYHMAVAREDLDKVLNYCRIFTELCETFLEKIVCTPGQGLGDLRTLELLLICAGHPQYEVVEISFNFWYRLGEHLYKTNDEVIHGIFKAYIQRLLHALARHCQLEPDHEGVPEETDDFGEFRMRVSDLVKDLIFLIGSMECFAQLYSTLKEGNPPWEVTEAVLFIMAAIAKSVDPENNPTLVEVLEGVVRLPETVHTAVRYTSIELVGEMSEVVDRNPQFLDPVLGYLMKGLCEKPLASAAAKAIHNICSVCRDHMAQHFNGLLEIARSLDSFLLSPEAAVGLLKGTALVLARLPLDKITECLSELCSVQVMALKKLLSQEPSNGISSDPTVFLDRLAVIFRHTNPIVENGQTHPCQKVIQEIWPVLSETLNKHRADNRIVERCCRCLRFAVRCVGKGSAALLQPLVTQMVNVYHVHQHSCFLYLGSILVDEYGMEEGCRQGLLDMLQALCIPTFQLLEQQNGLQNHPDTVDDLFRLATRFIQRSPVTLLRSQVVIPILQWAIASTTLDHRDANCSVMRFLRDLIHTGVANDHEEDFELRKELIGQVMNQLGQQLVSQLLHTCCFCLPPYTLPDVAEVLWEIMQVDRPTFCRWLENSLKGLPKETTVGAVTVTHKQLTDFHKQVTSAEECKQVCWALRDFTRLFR

Compound	tested on	test	test system	conditions	scale	measurement	result
COc1cc(Nc2ncc(F)c(Nc3ccc4c(n3)NC(=O)C(C)(C)O4)n2)cc(OC)c1OC	HRH4 (Homo sapiens, UniProt Q9H3N8)	–	–	–	–	IC50	> 10 µM
[O-][S+]1CCc2nc(N3CCC(c4ncc(Cl)cn4)CC3)nc(NC3(CO)CCC3)c21 (stereo not shown)	–	phase I trial, refers to: upper abdominal pain	healthy male volunteers	dose not given, single rising dose, all cohorts	–	subjects with adverse events	8.3%
CC(C)=CC1C(C(=O)OC(C#N)c2cccc(Oc3ccccc3)c2)C1(C)C (stereo not shown)	–	refers to: CYP2C8	human, age 5 years	–	–	enzyme contribution to clearance	5.61%
CO[C@H]1C[C@@H]2CC[C@@H](C)[C@@](O)(O2)C(=O)C(=O)N2CCCC[C@H]2C(=O)O[C@H]([C@H](C)C[C@@H]2CC[C@@H](OC(=O)NCCOCCOCCOCCOCCOCCOCCOCCOCCC(=O)N3CCc4cc(Cn5nc(-c6ccc7oc(N)nc7c6)c6c(N)ncnc65)ccc4C3)[C@H](OC)C2)C[C@@H](O)[C@H](C)/C=C(\C)[C@@H](O)[C@@H](OC)C(=O)[C@H](C)C[C@H](C)/C=C/C=C/C=C/1C	–	–	patients with advanced solid tumours	intravenous, dose not given, any grade	–	Mucositis AE leading to dose reduction	5.3%
O=S(=O)(Nc1ccccc1)c1ccc(NC(=S)Nc2ccccc2)cc1	–	–	mouse, female, blood	oral, 80 mg/kg daily, 14 days	–	mean corpuscular volume	47.4 fL
COc1cc(C2C3=C(COC3=O)N(CCO)c3cc4c(cc32)CCC4)cc(OC)c1OC (stereo not shown)	–	–	female C57BL/6 mice	intraperitoneal, 400 mg/kg, 24 h, single dose, mean	–	body weight	20 g
O=C(Nc1ccccc1)C1CCN(C(=O)Oc2cccnc2)CC1	–	–	healthy women	oral, 100 mg, 9 days	–	adverse event Somnolence	15.4%
N[C@@H]1c2ccccc2OC12CCN(c1cnc3c(N4CCCc5ncccc54)n[nH]c3n1)CC2	–	–	patients advanced metastatic solid tumours	oral, 60 mg once daily, RP2D expansion phase	–	incidence of any TEAE	100%
CCc1ccc(CC/C=C/c2ccc3c(c2)C(=O)CC3)cc1	–	–	Sprague-Dawley rat, male	oral, 450 mg/kg/day, 14 days	–	Fibrinogen	3.22 g/L
O=C(NCCN1CCCCC1)c1ccc(-c2ccc(N3CCSCC3)nc2)cc1	Vero-E6	CellTiter-Glo ATP	–	72 h, retest 8-point duplicates	relative to: DMSO 0%, hyamine -100%, more negative, more toxic	maximum response	-5.88%
CN[C@@H](C)C(=O)N[C@H]1CN(S(=O)(=O)c2cccc(S(=O)(=O)N3CC[C@H]4CC[C@@H](C(=O)NC(c5ccccc5)c5ccccc5)N4C(=O)[C@@H](NC(=O)[C@H](C)NC)C3)c2)CC[C@H]2CC[C@@H](C(=O)NC(c3ccccc3)c3ccccc3)N2C1=O	–	–	patients with advanced solid tumours	4 mg, phase I monotherapy	–	treatment-related pruritus incidence	0%
CN1CC[C@@H](c2c(O)cc(O)c3c(=O)cc(-c4ccc(C(F)(F)F)cc4Cl)oc23)[C@@H]1CO	–	refers to: Hypotension	AML	oral, 150 mg, intermittent dosing	–	patients with adverse event	25%
C[C@@H]1OC(=O)NN=C1c1ccc(-c2ccc(F)cc2)c(C(F)(F)F)c1	–	phase I trial, refers to: Presyncope all grades	human patients	5 mg once daily	–	patients with adverse event	0%
O=C(Oc1ccc(-n2cccc2)cc1)[c-]1cccc1.[Fe+2].c1cc[cH-]c1	–	cyclic voltammetry	acetonitrile	concentration not given, scan rate 100 mV/s, together with: Ag/AgCl reference	–	reduction potential	649 mV
CC[C@H](C)[C@@H]1NC(=O)[C@@H]2CCCN2C(=O)[C@H](CC(C)C)NC(=O)[C@H](CC(C)C)NC(=O)CNC(=O)[C@@H](NC(=O)[C@@H](NC(=O)[C@H](CC(=O)O)NC(=O)CNC(=O)[C@@H](NC(=O)[C@H](C)NC(=O)CNC(=O)[C@H](CCCCN)NC(=O)[C@H](CC(C)C)NC(=O)[C@H](CC(C)C)NC(=O)[C@H](CCCCN)NC(=O)CNC(=O)[C@@H](NC(=O)[C@@H](N)CC(C)C)C(C)C)C(C)C)C(C)C)CSSC[C@@H](C(=O)O)NC1=O	–	RNA-seq, refers to: Ly6d	mouse, traumatic brain injury model, frontal cortex and hippocampus	dose not given	relative to: TBI alone	log2 fold change	-2.85
CC[C@H](C)[C@H](NC(=O)[C@H](Cc1ccccc1)NC(=O)[C@H](CCC(=O)O)NC(=O)[C@H](CCCNC(=N)N)NC(=O)[C@H](C)NC(=O)[C@H](C)NC(=O)[C@H](CCC(N)=O)NC(=O)[C@H](CCC(=O)O)NC(=O)[C@H](CCC(=O)O)NC(=O)[C@H](CC(C)C)NC(=O)[C@H](Cc1ccc(O)cc1)NC(=O)[C@H](CO)NC(=O)[C@H](CO)NC(=O)[C@@H](NC(=O)[C@H](CC(=O)O)NC(=O)[C@H](CO)NC(=O)[C@@H](NC(=O)[C@H](Cc1ccccc1)NC(=O)[C@@H](NC(=O)CNC(=O)[C@H](CCC(=O)O)NC(=O)[C@H](C)NC(=O)CCc1c[nH]cn1)[C@@H](C)O)[C@@H](C)O)C(C)C)C(=O)N[C@@H](C)C(=O)N[C@@H](Cc1c[nH]c2ccccc12)C(=O)N[C@@H](CC(C)C)C(=O)N[C@H](C(=O)N[C@@H](CCCNC(=N)N)C(=O)NCC(=O)N[C@@H](CCCNC(=N)N)C(=O)N[C@@H](CCCCNC(=O)COCCOCCNC(=O)COCCOCCNC(=O)CC[C@H](NC(=O)CCCCCCCCCCCCCCCCC(=O)O)C(=O)O)C(=O)NCC(=O)NCC(=O)N[C@@H](CO)C(=O)N[C@@H](CCCCNc1c(NCCCCCN(O)C(=O)CCC(=O)NCCCCCN(O)C(=O)CCC(=O)NCCCCCN(O)C(C)=O)c(=O)c1=O)C(=O)O)C(C)C [zirconium-89 labelled]	–	ex vivo gamma counting	rat, intestine content	subcutaneous, 3 nmol/kg, 4 h, together with: [89Zr]-labelled peptide	–	tissue uptake	0.09 %ID/g
COc1cccc(Oc2ccccc2NC(=O)CNC(=O)c2cccc3ccccc23)c1	–	–	esterase-deficient SCID mice, male, blood	oral, 40 mg/kg/day, 14 days, toxicity study	–	mean corpuscular hemoglobin	15.1 pg and 14.8 pg
Clc1ccc(-c2ccccc2)cc1	–	–	rat Sprague-Dawley female, serum	inhalation, 23 µg/rat, 0 h	–	serum CO2	19 ± 5 mmol/L
C[C@@H]1NC(=O)[C@H](CCCCNC(=O)CO/N=C/C(=O)NCCCC[C@@H]2NC(=O)[C@@H](Cc3ccccc3)NC(=O)[C@H](CC(=O)O)NC(=O)CNC(=O)[C@H](CCCNC(=N)N)NC2=O)NC(=O)CNC(=O)[C@@H]2CCCN2C(=O)[C@H](CCCCNC(=O)CO/N=C/C(=O)NCCCC[C@@H]2NC(=O)[C@@H](Cc3ccccc3)NC(=O)[C@H](CC(=O)O)NC(=O)CNC(=O)[C@H](CCCNC(=N)N)NC2=O)NC(=O)[C@H](CCCCNC(=O)[C@H](CCCCN)NC(=O)[C@H](Cc2ccccc2)NC(=O)CNC(=O)CN2CCCNCCNCCCNCC2)NC(=O)[C@H](CCCCNC(=O)CO/N=C/C(=O)NCCCC[C@@H]2NC(=O)[C@@H](Cc3ccccc3)NC(=O)[C@H](CC(=O)O)NC(=O)CNC(=O)[C@H](CCCNC(=N)N)NC2=O)NC(=O)CNC(=O)[C@@H]2CCCN2C(=O)[C@H](CCCCNC(=O)CO/N=C/C(=O)NCCCC[C@@H]2NC(=O)[C@@H](Cc3ccccc3)NC(=O)[C@H](CC(=O)O)NC(=O)CNC(=O)[C@H](CCCNC(=N)N)NC2=O)NC1=O [copper-64 labelled]	–	–	normal mice, liver	intravenous, 0.74 MBq, 3 h post-injection	–	tissue uptake	38.1 ± 3.54 %ID/g

Compound	tested on	test	test system	conditions	scale	measurement	result
O=C(c1ccc(F)c(F)c1Nc1ccc(I)cc1F)N1CC(O)([C@@H]2CCCCN2)C1	–	–	patients aged 6 to sample A years	oral, dose not given	–	related AE dose modification	19%
CC(=O)c1c(C)c2cnc(Nc3ccc(C4CCN(CCS(C)(=O)=O)CC4)cn3)nc2n(C2CCCC2)c1=O	–	–	HR+/HER2- advanced breast cancer patients	oral, 100 mg twice daily, all grades,, monotherapy	–	patients with ALT increased	6.7%
C[C@H]1CN(c2n[nH]c3nc(N[C@H]4CC[C@H](NS(=O)(=O)CCC(F)(F)F)CC4)ncc23)CCO1	Transportin-3 (Homo sapiens, UniProt Q9Y5L0)	Kinobeads competition, refers to: TNPO3	–	20 µM, unit not given	relative to: vehicle	remaining binding	1.15
COc1ccc2nc3cc(Cl)ccc3c(Nc3cc(CN4CCCC4)c(O)c(CN4CCCC4)c3)c2n1	–	–	mouse, blood	intraperitoneal, 14 mg/kg	–	mean corpuscular haemoglobin concentration	378 g/L
COc1ccc(C[C@@H]2NC(=O)[C@H]([C@@H](C)O)NC(=O)[C@@H]3[C@@H]4CCN3C(=O)[C@@H]3Cc5cn(c6ccc(F)cc56)CCCCCCN(Cc5ccc(cc5)CCNC(=O)[C@]5(C)CCCN5C2=O)C(=O)CCC(=O)N[C@@H](C)C(=O)N[C@H](CNC(=O)CCCCC[N+](C)(C)C)C(=O)N[C@@H](Cc2cccc(c2)CNC(=O)CO4)C(=O)N3)cc1	–	–	human, plasma	oral, 200 mg	–	t1/2	56.4 h
CCN1[C@@H](C(=O)NC23CCC(C(=O)O)(CC2)CC3)[C@H](c2cccc(Cl)c2F)[C@]2(C(=O)Nc3cc(Cl)ccc32)C12CCCCC2	–	–	patients with advanced solid tumours	oral, 200 mg	–	grade ≥3 Lymphocytopenia incidence	50%
COC[C@@H](CC(C)C)NC(=O)c1ccc(C)c(C)c1	–	–	Hsd:ICR (CD-1) mouse, female, bone marrow	oral, 1352 mg/kg, 24 h	–	micronucleated PCE per 1000 PCE	0.1
C[C@@H](O)[C@@H](CO)NC(=O)[C@@H](CCCNC(=N)N)NC(=O)[C@@H]1CCCN1C(=O)[C@@H]1CSSC[C@H](NC(=O)[C@H](Cc2ccccc2)NC(=O)CN2CCN(CC(=O)O)CCN(CC(=O)O)CCN(CC(=O)O)CC2)C(=O)N[C@@H](Cc2ccc(O)cc2)C(=O)N[C@@H](Cc2ccccc2)C(=O)N[C@@H](CCC(N)=O)C(=O)N[C@@H](CC(N)=O)C(=O)N1 [gallium-68 labelled]	–	–	healthy Wistar rat, small intestine	intravenous, 8 MBq, 120 min	–	tissue uptake	0.03 %ID/g
CC(=O)N1CCC(C(=O)N2CCN3C(=O)c4cc(-c5ccccc5)ccc4NC(=O)C3C2)CC1 (stereo not shown)	Salmonella typhimurium	–	TA98	500 µg/plate, together with: rat liver S9	–	revertants per plate	42.5
CC(C)C[C@H](NC(=O)[C@H](CCCCN)NC(=O)OCC1c2ccccc2-c2ccccc21)C(=O)N[C@H](C(=O)N[C@@H](Cc1ccccc1)C(=O)N[C@@H](Cc1ccccc1)C(=O)N[C@@H](CCCCN)C(=O)NCC(=O)N[C@@H](Cc1ccccc1)C(=O)N[C@@H](C)C(=O)N[C@@H](Cc1c[nH]c2ccccc12)C(=O)N[C@@H](CC(N)=O)C(=O)N[C@H](C(=O)N[C@H]1CSSC[C@@H](C(=O)N[C@@H](Cc2c[nH]cn2)C(=O)N[C@@H](CCCNC(=N)N)C(=O)N[C@@H](CCCNC(=N)N)C(=O)N[C@@H](C)C(=O)N[C@@H](CC(N)=O)C(N)=O)NC(=O)[C@H](C(C)C)NC(=O)[C@H](CCCNC(=N)N)NC(=O)[C@H](C(C)C)NC(=O)CNC(=O)[C@H](CC(N)=O)NC(=O)[C@H](CCCNC(=N)N)NC(=O)[C@H](Cc2ccc(O)cc2)NC(=O)[C@H](C(C)C)NC1=O)C(C)C)C(C)C	–	HPLC	mouse mammary gland homogenate	2560 µM, 6.00 h, 37 °C, 50 mg/mL tissue	–	remaining peptide	79.5% and 82.4%
O=C1c2c(O)c(=O)ccn2N([C@@H]2c3ccccc3SCc3c2ccc(F)c3F)[C@@H]2COCCN12	–	–	BALB/c mouse	subcutaneous, 0.125 mg/kg q12h	–	trough concentration	0.394 ng/mL
O=C(c1ccc(Cl)cc1)N1CCN2C(=O)N(OC(=O)N3CCOc4ccccc43)C(=O)C2C1 (stereo not shown)	GSTO1 (Homo sapiens, UniProt P78417)	MS-based ABPP	SW-620 conditioned medium	10 µM	relative to: compound over DMSO, lower = more inhibition	peptide ratio	1.12
C[C@]1(CO)Cc2ncn(-c3ccc(C#N)c(Cl)c3)c2C(=O)O1	–	–	human	40 mg single dose	–	subjects with drug-related headache	0%
N#C/N=C1\SCCN1Cc1ccc(Cl)nc1	–	–	soil	0 days, nominal 10	–	recovery	52%
CN(C)CCc1c[nH]c2ccc(N=Nc3ccccc3)cc12	–	light irradiation	solution	together with: light 530 nm	–	trans isomer at photostationary state	87%
COc1cc2c(Oc3ccc4[nH]c(C)cc4c3F)ccnc2cc1OCC1(N)CC1	–	–	paediatric recurrent refractory sarcoma	8 mg	–	grade 3 AST elevation	0%
CN(C)c1ccc(-c2nc(-c3cccs3)c(-c3cccs3)[nH]2)cc1	Vero-E6	CellTiter-Glo ATP	–	72 h, retest 8-point duplicates	relative to: DMSO 0%, hyamine -100%, more negative, more toxic	maximum response	-20%
COc1ncccc1-c1cnn2ccc(N3CCN(C(=O)OC(C)C)CC3)nc12	–	–	rat, STZ model, brain	oral, 30 mg/kg, 240 min	–	drug concentration	29 µM

Repeated from above:
Compound	tested on	test	test system	conditions	scale	measurement	result
O=C(NCCN1CCCCC1)c1ccc(-c2ccc(N3CCSCC3)nc2)cc1	Vero-E6	CellTiter-Glo ATP	–	72 h, retest 8-point duplicates	relative to: DMSO 0%, hyamine -100%, more negative, more toxic	maximum response	-5.88%
CN[C@@H](C)C(=O)N[C@H]1CN(S(=O)(=O)c2cccc(S(=O)(=O)N3CC[C@H]4CC[C@@H](C(=O)NC(c5ccccc5)c5ccccc5)N4C(=O)[C@@H](NC(=O)[C@H](C)NC)C3)c2)CC[C@H]2CC[C@@H](C(=O)NC(c3ccccc3)c3ccccc3)N2C1=O	–	–	patients with advanced solid tumours	4 mg, phase I monotherapy	–	treatment-related pruritus incidence	0%
CN1CC[C@@H](c2c(O)cc(O)c3c(=O)cc(-c4ccc(C(F)(F)F)cc4Cl)oc23)[C@@H]1CO	–	refers to: Hypotension	AML	oral, 150 mg, intermittent dosing	–	patients with adverse event	25%
C[C@@H]1OC(=O)NN=C1c1ccc(-c2ccc(F)cc2)c(C(F)(F)F)c1	–	phase I trial, refers to: Presyncope all grades	human patients	5 mg once daily	–	patients with adverse event	0%
